# Experimental data from different studies.
# Protocols differ between the studies behind these lines. Numbers after ± are the reported error.
Compound,test,system,setting,how to read,measurement,result
CCN(CC)CCNC(=O)c1c(C)[nH]c(/C=C2\C(=O)Nc3ccc(F)cc32)c1C,,"human, plasma","oral, 20 mg/m2, day 14",,median trough plasma concentration,31 ng/mL
C[N+]1(CC(=O)NC2CCCCCCCCCCC2)CCCCC1.[I-],metabolic stability,"male CD-1 mouse, liver microsomes","1 µM, pH 7.4",,half-life,7.1 min
CCCCCCCCCCCCCCN(C)C,liver S9 substrate depletion,rainbow trout liver S9,six-surfactant mixture,,in vivo intrinsic clearance,140 mL/h/g liver
CO[C@@H]1[C@@H](OC(N)=O)[C@@H](O)[C@H](Oc2ccc3c(O)c(NC(=O)c4ccc(O)c(CC=C(C)C)c4)c(=O)oc3c2C)OC1(C)C,mitochondrial swelling,BALB/cByJ female mouse liver mitochondria,"30 min, with: succinate + rotenone",reference: CaCl2 maximal swelling,EC20,290 µM
Cn1c(-c2ccc(C(N)=O)cc2F)nnc1C(C)(C)Oc1c(F)cc(Cl)cc1F,,"young non-Japanese adults, plasma","oral, 50 mg single dose, day 1, high-dose multiple-dose study",,Tmax range over subjects,2 to 4 h
O=S(=O)(O)Oc1cc([C@H]2Oc3cc(O)cc(O)c3C[C@H]2O)ccc1O,,"human, fasted baseline, cerebrospinal fluid",,,mean concentration,12.1 nM
COc1cccc(-c2ccc(NC(=O)C3=C(C(=O)O)CCC3)c(F)c2)c1,,"male human, plasma","oral, 10 mg, single dose, fed, healthy volunteers",,Vd/F,9.02 L
O=C(Cc1cccc(OC(F)(F)F)c1)Nc1ccc(CCCCc2nnc(NC(=O)Cc3ccccn3)s2)nn1,,"human patients, plasma","oral, 400 mg three times daily fasted, cycle 1 day 15 steady state",,AUC(0-8h),3850 ng·h/mL
O=C(O)c1cccc(O)c1,,"human, fasted baseline, cerebrospinal fluid",,,median concentration,304 nM
COc1cccc2c1C(=O)c1c(O)c3c(c(O)c1C2=O)C[C@@](O)(C(=O)CO)C[C@@H]3O[C@H]1C[C@H](N)[C@H](O)[C@H](C)O1,"cytochrome c release, ELISA",BALB/cByJ female mouse liver mitochondria,30 min,reference: alamethicin maximal release,EC20,23.3 µM
[2H]C([2H])([2H])Oc1cc2c(cc1OC([2H])([2H])[2H])C1CC(=O)C(CC(C)C)CN1CC2 (stereo not drawn),refers to: deuterated α-HTBZ,"healthy human volunteers, plasma","oral, 18 mg single dose, standard meal",,dose-normalized Cmax,1.6 ng/mL
Cn1cnc2c1c(=O)[nH]c(=O)n2C,in situ brain perfusion,rat,no efflux inhibition,,log intrinsic permeability,-5
COc1ccc(-c2coc3cc(O)ccc3c2=O)cc1O,,"extracted rat plasma, autosampler","2.25 ng/mL, 24 h, 4 °C, post-preparative stability, low QC",,accuracy,97.6 % nominal
COC(=O)C[C@](O)(CCCC(C)(C)O)C(=O)O[C@@H]1C(OC)=C[C@]23CCCN2CCc2cc4c(cc2[C@H]13)OCO4,,"CD1 mouse, large intestine","oral, 1 mg/kg, 24 h, below quantification limit 1.00 ng/mL",,tissue concentration,not detected
CS/C(S)=N/CCCC[S+](C)[O-] (racemic),RT-PCR,"rat, mammary gland","oral gavage, 200 mg/kg, four days, unit not given",reference: vehicle,mRNA level,2.34
O=c1c(O)c(-c2ccc(O)cc2)oc2cc(OS(=O)(=O)O)cc(O)c12,,"FVB mice, male, Bcrp1^−/−, plasma","oral, 10 mg/kg of kaempferol",,MRT,2.62 ± 0.133 h
CCNC(=O)[C@@H]1CCCN1C(=O)[C@H](CCCNC(=N)N)NC(=O)[C@H](CC(C)C)NC(=O)[C@@H](CC(C)C)NC(=O)[C@H](Cc1ccc(O)cc1)NC(=O)[C@H](CO)NC(=O)[C@H](Cc1c[nH]c2ccccc12)NC(=O)[C@H](Cc1c[nH]cn1)NC(=O)[C@@H]1CCC(=O)N1,,membrane in isopropyl myristate,"1 mg/mL, 12 h, pH 6.8, 37 °C, receiver 0.5% Tween 80",,permeated fraction,24.3%
C=C(C)[C@@H]1CC[C@]2(NCCN3CCS(=O)(=O)CC3)CC[C@]3(C)[C@H](CC[C@@H]4[C@@]5(C)CC=C(C6=CC[C@@](CF)(C(=O)O)CC6)C(C)(C)[C@@H]5CC[C@]43C)[C@@H]12,,human,"oral, 320 mg once daily, day 14, multiple ascending dose",,AUC(0-tau),32000 ng·h/mL
CC(O)C(C)n1ncn(-c2ccc(N3CCN(c4ccc(OCC5COC(Cn6cncn6)(c6ccc(Cl)cc6Cl)O5)cc4)CC3)cc2)c1=O (stereo not drawn),,"human male, plasma","oral, dose not given, day 3, geometric mean, with: itraconazole 200 mg pretreatment",,AUC(0-24 h),13500 ng·h/mL
CCCC[C@H](NC(C)=O)C(=O)N[C@H]1CCC(=O)NC[C@@H](C(=O)N[C@@H](Cc2c[nH]c3ccccc23)C(N)=O)NC(=O)[C@H](CCCNC(=N)N)NC(=O)[C@@H](Cc2ccccc2)NC(=O)[C@H](Cc2c[nH]cn2)NC1=O,,"beagle dog, female, plasma","subcutaneous, 1.5 mg/kg daily, day 14",,Cmax,128 ng/mL
O=C(NC[C@H]1CN(c2ccc(N3CCOCC3=O)cc2)C(=O)O1)c1ccc(Cl)s1,,"Sprague-Dawley rat, male, plasma","oral, 10 mg/kg",,apparent clearance CL/F,71 ± 15.2 mL/min/kg
Cc1cc(C)c2c(c1)[C@@H](N(Cc1cc(C(F)(F)F)cc(C(F)(F)F)c1)c1nnn(C)n1)CCCN2C[C@H]1CC[C@H](C(=O)O)CC1,,"human, dyslipidemic patients, plasma","oral, 100 mg daily, geometric mean, with: atorvastatin",,AUC(0-tau) at steady state,5500 ng·h/mL
CC[C@H](C)[C@H](NC(=O)[C@@H](NC(=O)[C@H](CS)NC(=O)[C@H](C)NC(=O)[C@H](CCCNC(=N)N)NC(=O)[C@H](CCCNC(=N)N)NC(=O)[C@H](CC(N)=O)NC(=O)[C@H](CCCNC(=N)N)NC(=O)[C@H](C)NC(=O)[C@H](CS)NC(=O)[C@H](CC(C)C)NC(=O)[C@@H](NC(=O)[C@@H](NC(=O)[C@H](CS)NC(=O)[C@H](CCCCN)NC(=O)[C@@H](N)CCCNC(=N)N)C(C)C)[C@@H](C)CC)C(C)C)C(=O)N[C@@H](CC(C)C)C(=O)N[C@@H](CS)C(=O)N[C@@H](CCCNC(=N)N)C(=O)O,LC-MS,PBS,0.1 mg/mL,,single disulfide form,0%
O=C(/C=C/c1ccc(O)c2c1[C@H](C(=O)O)[C@@H](c1ccc(O)c(O)c1)O2)O[C@H](Cc1ccc(O)c(O)c1)C(=O)O,UPLC-MS/MS,"Wistar rat, microcirculation dysfunction model, plasma","oral, 100 mg/kg Salvia miltiorrhiza stem-leaf extract FS",,AUC(0-t),203 ± 33.4 ng·h/mL
CC(C)c1c(C(=O)Nc2ccccc2)c(-c2ccccc2)c(-c2ccc(F)cc2)n1CC[C@@H](O)C[C@@H](O)CC(=O)O,mitochondrial swelling,BALB/cByJ female mouse liver mitochondria,"30 min, with: succinate + rotenone",reference: CaCl2 maximal swelling,EC20,5.6 µM
CN1CC[C@@H](NC(=O)Nc2ccc(C#N)cc2)C[C@@H]1c1nc2ccccc2[nH]1,,"moderate hepatic impairment, plasma","oral, 100 mg single dose, fasted, arithmetic mean",,"AUC(0-t), unbound",1020 ± 278 ng·h/mL
CCCC[C@@H]1NC(=O)[C@@H](NC(=O)[C@H](CCC(=O)O)NC(=O)CNC(=O)CN2CCN(CC(=O)O)CCN(CC(=O)O)CCN(CC(=O)O)CC2)CCCCNC(=O)C[C@@H](C(N)=O)NC(=O)[C@H](C(C)C)NC(=O)[C@@H]2CCCN2C(=O)[C@H](CCCNC(=N)N)NC(=O)CNC(=O)[C@H](Cc2c[nH]c3ccccc23)NC(=O)[C@H](CCCNC(=N)N)NC(=O)[C@@H](Cc2ccccc2)NC(=O)[C@H](Cc2c[nH]cn2)NC(=O)[C@H](CCC(=O)O)NC1=O [indium-111 labelled],,"C57 mice, B16/F10 lung metastatic melanoma, blood","intravenous, 0.037 MBq, 4 h",,tissue uptake,0.03 ± 0.03 %ID/g
CC[C@H](C)C(=O)O[C@H]1C[C@H](O)C=C2C=C[C@H](C)[C@H](CC[C@@H](O)C[C@@H](O)CC(=O)O)[C@H]21,"cytochrome c release, ELISA",BALB/cByJ female mouse liver mitochondria,30 min,reference: alamethicin maximal release,EC20,> 200 µM
CCc1oc2cc(O)ccc2c1C(=O)c1cc(Br)c(O)c(Br)c1,metabolic stability,"Sprague-Dawley rat, liver microsomes","1 µM, pH 7.4",,microsomal CLint,23 µL/min/mg
CC1(C)S[C@@H]2[C@H](NC(=O)[C@H](N)c3ccc(O)cc3)C(=O)N2[C@H]1C(=O)O,mitochondrial swelling,BALB/cByJ female mouse liver mitochondria,"30 min, with: succinate + rotenone",reference: CaCl2 maximal swelling,EC20,> 400 µM
C[C@@H](O)[C@H]1C(=O)N2C(C(=O)O)=C(S[C@@H]3CN[C@H](C(=O)N(C)C)C3)[C@H](C)[C@H]12,"microdialysis, noncompartmental","pig (Danish Landrace), subcutaneous adipose tissue","iv infusion, 1000 mg over 10 min, with: vancomycin co-administered",,AUC(0-last),1870 µg·min/mL
Cc1ccco1,metabolic activation to acetaldehyde,pooled human liver microsomes,"10 min, high-affinity phase excluded, high concentrations",,Km,1.16 mM
O=c1[nH]c(=O)c(Cc2cccc(C(F)(F)F)c2)c([C@H]2CC[C@H](c3ccccc3)CC2)[nH]1,,"human, plasma","oral, 900 mg once daily, day 7, geometric mean",,AUC(0-tau),9750 ng·h/mL
CC[C@H](C)[C@H](NC(=O)[C@H](CCC(=O)O)NC(=O)[C@H](CO)NC(=O)[C@@H](NC(=O)[C@@H](N)CO)C(C)C)C(=O)N[C@@H](CCC(N)=O)C(=O)N[C@@H](CC(C)C)C(=O)N[C@@H](CCSC)C(=O)N[C@@H](Cc1cnc[nH]1)C(=O)N[C@@H](CC(N)=O)C(=O)N[C@@H](CC(C)C)C(=O)NCC(=O)N[C@@H](CCCCN)C(=O)N[C@@H](Cc1cnc[nH]1)C(=O)N[C@@H](CC(C)C)C(=O)N[C@@H](CC(N)=O)C(=O)N[C@@H](CO)C(=O)N[C@@H](CCSC)C(=O)N[C@@H](CCC(=O)O)C(=O)N[C@@H](CCCN=C(N)N)C(=O)N[C@H](C(=O)N[C@@H](CCC(=O)O)C(=O)N[C@@H](Cc1c[nH]c2ccccc12)C(=O)N[C@@H](CC(C)C)C(=O)N[C@@H](CCCN=C(N)N)C(=O)N[C@@H](CCCCN)C(=O)N[C@@H](CCCCN)C(=O)N[C@@H](CC(C)C)C(=O)N[C@@H](CCC(N)=O)C(=O)N[C@@H](CC(=O)O)C(=O)N[C@H](C(=O)N[C@@H](Cc1cnc[nH]1)C(=O)N[C@@H](CC(N)=O)C(=O)N[C@@H](Cc1ccccc1)C(=O)O)C(C)C)C(C)C,population pharmacokinetic model,"postmenopausal osteoporotic women, serum","subcutaneous, 20 µg",,absorption rate constant,0.63 h⁻¹
Cc1cc(Nc2ccc(C(=O)N/N=C/c3scnc3C)cc2)c2cccc(O)c2n1,,"female Sprague-Dawley rat, plasma","oral, 20 mg/kg",,bioavailability,~6.91%
COc1cccc2c1C(=O)c1c(O)c3c(c(O)c1C2=O)C[C@@](O)(C(C)=O)C[C@@H]3O[C@H]1C[C@H](N)[C@H](O)[C@H](C)O1,"cytochrome c release, ELISA",BALB/cByJ female mouse liver mitochondria,30 min,reference: alamethicin maximal release,EC20,47.2 µM
Cc1nc2cccc(OCC(C)(C)C(=O)NC(C)C)c2c(N)c1C(=O)O,,"male Sprague-Dawley rat, plasma","dietary, 100 mg/kg/day, day 90",,Tmax,3 h
Cc1ccc(NC(=O)c2ccc(CN3CCN(C)CC3)cc2)cc1Nc1nccc(-c2cncc(-c3oncc3C)c2)n1,,"Parkinson's disease patients, plasma","oral, 100 mg once daily, day 1, 7-day dosing, mean",,AUC(0-tau),50600 ng·h/mL
O=C(N/N=C/c1ccc([N+](=O)[O-])o1)c1ccc(O)cc1,mitochondrial swelling,BALB/cByJ female mouse liver mitochondria,"30 min, with: succinate + rotenone",reference: CaCl2 maximal swelling,EC20,> 400 µM
Cn1cnc2c(F)c(Nc3ccc(Br)cc3Cl)c(C(=O)NOCCO)cc21,,"ESRD on hemodialysis, plasma","oral, 50 mg single dose, dosed 1 h before dialysis",,AUC,1560 ng·h/mL
CCCCCN1C[C@H](O)[C@@H](O)[C@H](O)[C@@H]1CO,,"human males, plasma","oral, dose not given, distribution phase, single dose",,concentration decrease from Cmax,> 98%
N[C@@H](CC(=O)O)Cn1nnc(-c2ccc(Oc3ncc(Cl)cc3F)cc2)n1,,"human, blood","20 mg single dose, 24 h",,concentration,~33 ng/mL
CC[C@H](C)[C@H](NC(=O)[C@H](C)NC(=O)[C@H](CCC(=O)O)NC(=O)[C@H](CCCCNC(=O)c1ccc2c(c1)C1(OC2=O)c2ccc(O)cc2Oc2cc(O)ccc21)NC(=O)CCOCCOCCOCCNC(=O)CCOCCOCCOCCNC(=O)[C@@H]1CSCC(=O)N[C@@H](Cc2c[nH]c3ccccc23)C(=O)N2CCC[C@@H]2C(=O)NCC(=O)N[C@@H](CCCNC(=N)N)C(=O)N1)C(=O)N[C@@H](Cc1ccc(O)cc1)C(=O)N[C@@H](C)C(=O)N[C@@H](C)C(=O)N1CCC[C@H]1C(=O)N[C@@H](Cc1ccccc1)C(=O)N[C@@H](C)C(=O)N[C@@H](CCCCN)C(=O)N[C@@H](CCCCN)C(=O)N[C@@H](CCCCN)C(N)=O,,Baf/BCR-ABL cell lysate,"2 µM, 37 °C",,initial degradation rate,1.1 pmol/mg/s
O=C(O)c1cc(O)c(O)c(O)c1,"cytochrome c release, ELISA",BALB/cByJ female mouse liver mitochondria,30 min,reference: alamethicin maximal release,EC20,> 200 µM
NCCCC[C@@H]1NC(=O)[C@@H](Cc2c[nH]c3ccccc23)NC(=O)[C@H](c2ccccc2)NC(=O)[C@@H]2C[C@@H](OC(=O)NCCN)CN2C(=O)[C@H](Cc2ccccc2)NC(=O)[C@H](Cc2ccc(OCc3ccccc3)cc2)NC1=O,radioimmunoassay,"healthy human male volunteers, plasma","subcutaneous, 200 µg",,alpha half-life,1.7 ± 0.6 h
